# Experimental data pooled from the literature.
# Lines come from different studies, so protocols differ. Values joined by “and” are separate records of one study, mostly repeats; a detail may differ. ± marks the error that the study gave.
# UniProt Q9NP80, sequence (whole entry, looked up): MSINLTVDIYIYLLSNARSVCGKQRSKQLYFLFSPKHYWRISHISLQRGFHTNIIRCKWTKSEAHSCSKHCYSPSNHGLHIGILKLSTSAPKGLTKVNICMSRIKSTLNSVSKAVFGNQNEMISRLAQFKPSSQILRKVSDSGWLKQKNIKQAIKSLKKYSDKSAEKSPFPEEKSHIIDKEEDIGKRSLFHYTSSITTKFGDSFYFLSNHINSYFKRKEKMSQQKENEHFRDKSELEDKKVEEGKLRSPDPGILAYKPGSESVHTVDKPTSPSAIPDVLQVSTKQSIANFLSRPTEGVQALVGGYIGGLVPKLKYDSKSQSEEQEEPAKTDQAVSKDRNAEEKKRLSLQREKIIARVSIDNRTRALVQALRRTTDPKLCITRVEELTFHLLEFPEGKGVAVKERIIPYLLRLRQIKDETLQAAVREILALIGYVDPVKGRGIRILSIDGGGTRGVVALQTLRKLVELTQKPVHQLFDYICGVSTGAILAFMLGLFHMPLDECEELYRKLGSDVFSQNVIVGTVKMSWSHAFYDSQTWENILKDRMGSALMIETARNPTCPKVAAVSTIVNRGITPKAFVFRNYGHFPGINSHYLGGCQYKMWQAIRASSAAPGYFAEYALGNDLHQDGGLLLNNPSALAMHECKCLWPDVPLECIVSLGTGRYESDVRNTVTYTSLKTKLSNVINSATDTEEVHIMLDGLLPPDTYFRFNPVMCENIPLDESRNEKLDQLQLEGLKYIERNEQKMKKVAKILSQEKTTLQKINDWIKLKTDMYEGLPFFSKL
# UniProt P61073, sequence (whole entry, looked up): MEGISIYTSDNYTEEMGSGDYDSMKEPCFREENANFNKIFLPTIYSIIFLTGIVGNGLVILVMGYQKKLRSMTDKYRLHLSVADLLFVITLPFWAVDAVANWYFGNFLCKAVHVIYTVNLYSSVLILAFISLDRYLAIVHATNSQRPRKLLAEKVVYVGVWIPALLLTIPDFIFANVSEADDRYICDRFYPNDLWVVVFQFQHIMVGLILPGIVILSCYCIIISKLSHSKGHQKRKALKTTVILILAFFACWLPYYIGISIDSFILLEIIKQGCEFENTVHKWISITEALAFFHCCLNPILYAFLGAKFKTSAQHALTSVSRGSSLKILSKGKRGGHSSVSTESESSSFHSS
# UniProt Q9UBE8, sequence (whole entry, looked up): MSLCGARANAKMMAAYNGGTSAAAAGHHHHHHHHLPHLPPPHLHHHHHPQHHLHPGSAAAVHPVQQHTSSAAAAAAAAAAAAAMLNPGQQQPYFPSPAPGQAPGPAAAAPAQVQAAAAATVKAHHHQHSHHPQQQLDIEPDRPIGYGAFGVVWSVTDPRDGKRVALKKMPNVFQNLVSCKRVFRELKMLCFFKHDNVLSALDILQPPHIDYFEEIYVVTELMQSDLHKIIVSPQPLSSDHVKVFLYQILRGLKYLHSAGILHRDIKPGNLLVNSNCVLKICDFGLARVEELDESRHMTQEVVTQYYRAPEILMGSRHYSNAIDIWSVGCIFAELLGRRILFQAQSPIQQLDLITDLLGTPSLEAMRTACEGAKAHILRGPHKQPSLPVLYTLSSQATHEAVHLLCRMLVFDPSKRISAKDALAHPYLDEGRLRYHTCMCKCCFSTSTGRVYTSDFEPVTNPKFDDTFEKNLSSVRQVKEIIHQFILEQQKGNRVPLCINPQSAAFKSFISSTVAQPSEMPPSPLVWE
Structure (SMILES),tested on,test,system,setting,scale,quantity,result
C/C=C1/CN2CC[C@]34C(=C(C(=O)OC)[C@H]1C[C@H]23)Nc1ccc(Br)cc14,,,CD-1 mouse,"subcutaneous, 10 mg/kg, 40 min",relative to: baseline,rotarod latency,~50%
C#Cc1ccc2c(c1)C(c1ccccn1)=NCc1c(-c3cnco3)ncn1-2.Cl,,shake flask,50 mM phosphate buffer,"24 h, pH 4, 25 °C",,solubility,3460 µg/mL
Cn1cc(CN2CCCC(COc3ccccc3C(=O)N3CCCCC3)C2)c2ccccc21 (stereo not shown),Vero-E6,CellTiter-Glo ATP,,"72 h, retest 8-point duplicates","relative to: DMSO 0%, hyamine -100%, more negative, more toxic",maximum response,-11.2%
C#Cc1ccc2c(c1)C(c1ccccn1)=NCc1c(-c3cnco3)ncn1-2,,,Sprague Dawley rat,"oral, 2 mg/kg, cassette dosing",relative to: brain AUC over plasma AUC,Kp,1.08 and ~1
COc1cccc(C2(O)CCCCC2CN(C)C)c1 (stereo not shown),,joint PK model,"human, whole blood","oral, one-compartment metabolite model",,Kt,0.0433 L/h
COc1c(CCC[P+](c2ccccc2)(c2ccccc2)c2ccccc2)cc2c(c1OC)OCO2.[I-],OVCAR-4,SRB,,,,TGI,-4.9 log M
CN/C(=N\[N+](=O)[O-])NCc1cnc(Cl)s1,,,soil,"28 days, nominal 3.3",,recovery,63.6%
O=C(O)CCCO,,,"Sprague-Dawley rat, male","intravenous, 600 mg/kg daily, day 5, chronic",,renal clearance,1.64 mL/min/kg
CCCC(C(=O)c1ccc(O)c(OC)c1)N1CCCC1 (stereo not shown),,LC-MS/MS,"rat, trunk blood plasma","subcutaneous, 1 mg/kg MDPV, 240 min",,plasma concentration,41.1 ± 2.9 ng/mL
Cc1ncc(OC[C@@]2(c3cccc(F)c3)C[C@H]2C(=O)Nc2ccc(F)cn2)c(C)n1,,population PK base model,"human, plasma","oral, capsule",,absorption rate constant,0.526 h⁻¹
COc1ccc2c3c1O[C@H]1[C@@H](O)CC[C@H]4[C@@H](C2)N(C)CC[C@@]341,,pH-potentiometric titration,,,relative to: O-methyl derivative,"Δlog K, saturation effect",0.68 log units
CCN(CC)C(=O)[C@@H]1C=C2c3cccc4[nH]cc(c34)C[C@H]2N(C)C1,,item: numbness of hands and feet,healthy volunteers,"dose not given, 12 to 24 h","relative to: placebo, direction not given",List of Complaints score,0
COc1cc2c(Oc3ccc4[nH]c(C)cc4c3F)ccnc2cc1OCC1(N)CC1,,,paediatric recurrent refractory sarcoma,8 mg,,grade 3 sinus bradycardia,0%
CCC(CC)COC(=O)[C@H](C)N[P@](=O)(OC[C@H]1O[C@@](C#N)(c2ccc3c(N)ncnn23)[C@H](O)[C@@H]1O)Oc1ccccc1,,,human,"intravenous, dose not given",,participants with drug-related adverse events,5.1%
OCc1ncc2n1-c1ccc(Cl)cc1C(c1ccccc1F)=NC2,,,"healthy volunteers, plasma","dose not given, together with: momelotinib",relative to: with momelotinib over alone,AUCinf geometric mean ratio,83.8%
C[C@H]1CN(c2n[nH]c3nc(N[C@H]4CC[C@H](NS(=O)(=O)CCC(F)(F)F)CC4)ncc23)CCO1,"Serine/threonine-protein kinase NLK (NLK, Homo sapiens, UniProt Q9UBE8)",Kinobeads competition,"HEK293, K562, placenta lysate","20 µM, unit not given",relative to: vehicle,remaining binding,0.13
Cc1ncc2n1-c1ccc(Cl)cc1C(c1ccccc1F)=NC2,,,healthy humans,"oral, dose not given",,adverse event Somnolence,21.7%
O=C(NCCCN1CCCCC1)c1cc(Sc2ccc(Cl)cc2)nc2ccccc12,Vero-E6,CellTiter-Glo ATP,,"72 h, retest 8-point duplicates","relative to: DMSO 0%, hyamine -100%, more negative, more toxic",maximum response,-7.18%
CCCC(C(=O)c1ccc(O)c(O)c1)N1CCCC1 (stereo not shown),,LC-MS/MS,"rat, trunk blood plasma","subcutaneous, 2 mg/kg MDPV, 40 min",,plasma concentration,50.6 ± 7 ng/mL
CC[C@H](C)[C@H](NC(=O)[C@H](Cc1ccccc1)NC(=O)[C@H](CCC(=O)O)NC(=O)[C@H](CCCNC(=N)N)NC(=O)[C@H](C)NC(=O)[C@H](C)NC(=O)[C@H](CCC(N)=O)NC(=O)[C@H](CCC(=O)O)NC(=O)[C@H](CCC(=O)O)NC(=O)[C@H](CC(C)C)NC(=O)[C@H](Cc1ccc(O)cc1)NC(=O)[C@H](CO)NC(=O)[C@H](CO)NC(=O)[C@@H](NC(=O)[C@H](CC(=O)O)NC(=O)[C@H](CO)NC(=O)[C@@H](NC(=O)[C@H](Cc1ccccc1)NC(=O)[C@@H](NC(=O)CNC(=O)[C@H](CCC(=O)O)NC(=O)[C@H](C)NC(=O)CCc1c[nH]cn1)[C@@H](C)O)[C@@H](C)O)C(C)C)C(=O)N[C@@H](C)C(=O)N[C@@H](Cc1c[nH]c2ccccc12)C(=O)N[C@@H](CC(C)C)C(=O)N[C@H](C(=O)N[C@@H](CCCNC(=N)N)C(=O)NCC(=O)N[C@@H](CCCNC(=N)N)C(=O)N[C@@H](CCCCNC(=O)COCCOCCNC(=O)COCCOCCNC(=O)CC[C@H](NC(=O)CCCCCCCCCCCCCCCCC(=O)O)C(=O)O)C(=O)NCC(=O)NCC(=O)N[C@@H](CO)C(=O)N[C@@H](CCCCNc1c(NCCCCCN(O)C(=O)CCC(=O)NCCCCCN(O)C(=O)CCC(=O)NCCCCCN(O)C(C)=O)c(=O)c1=O)C(=O)O)C(C)C [zirconium-89 labelled],,ex vivo gamma counting,"rat, knee","subcutaneous, 3 nmol/kg, 4 h, together with: [89Zr]-labelled peptide",,tissue uptake,0.12 %ID/g
CN(C)C[C@H]1CCCC[C@]1(O)c1cccc(O)c1,,joint PK model,human,"dose not given, two-compartment metabolite model",,metabolite central volume,43.1 L
CCOC(=O)Nc1ccc(NCc2ccc(F)cc2)cc1N,,rotarod test,"mouse, CCI neuropathic pain model",10 mg/kg,,time to first slip,0.83 ± 0.08 min
O=C1c2c(O)c(=O)ccn2N([C@@H]2c3ccccc3SCc3c2ccc(F)c3F)[C@@H]2COCCN12,,,BALB/c mouse,"subcutaneous, 4 mg/kg q24h",,trough concentration,4.38 ng/mL
O=C(c1ccc(Cl)cc1)N1CCN2C(=O)N(OC(=O)N3CCOc4ccccc43)C(=O)C2C1 (stereo not shown),"PNPLA8 (Homo sapiens, UniProt Q9NP80)","enzyme activity, inhibitor, MS-based ABPP",SW-620 in situ,"10 µM, 2 h, 37 °C","relative to: compound over DMSO, lower = stronger inhibition",median ratio,1.08
CN1CC[C@@H](c2c(O)cc(O)c3c(=O)cc(-c4ccc(C(F)(F)F)cc4Cl)oc23)[C@@H]1CO,,item: Hypotension,relapsed B-cell malignancies or AML,"oral, 100 mg, grade 3-4, continuous dosing",,patients with adverse event,12.5%
CCCC(C(=O)c1ccc2c(c1)OCO2)N1CCCC1.Cl (racemic),,,male Sprague-Dawley rat,"subcutaneous, 4 mg/kg, 40 min",,core body temperature,no effect
CC[C@H](C)[C@@H]1NC(=O)[C@@H]2CCCN2C(=O)[C@H](CC(C)C)NC(=O)[C@H](CC(C)C)NC(=O)CNC(=O)[C@@H](NC(=O)[C@@H](NC(=O)[C@H](CC(=O)O)NC(=O)CNC(=O)[C@@H](NC(=O)[C@H](C)NC(=O)CNC(=O)[C@H](CCCCN)NC(=O)[C@H](CC(C)C)NC(=O)[C@H](CC(C)C)NC(=O)[C@H](CCCCN)NC(=O)CNC(=O)[C@@H](NC(=O)[C@@H](N)CC(C)C)C(C)C)C(C)C)C(C)C)CSSC[C@@H](C(=O)O)NC1=O,,"RNA-seq, item: Ibsp mRNA","mouse traumatic brain injury, frontal cortex and hippocampus",dose not given,relative to: TBI plus compound vs TBI,log2 fold change,-3.05
O=C(O)CCC(CP(=O)(O)O)C(=O)O (stereo not shown),,,"Wistar rat, male, plasma","ip, 100 mg/kg",,CL/F,7.93 mL/min/kg
COc1cc(Nc2ncc(F)c(Nc3ccc4c(n3)NC(=O)C(C)(C)O4)n2)cc(OC)c1OC,"C-X-C chemokine receptor type 4 (CXCR4, Homo sapiens, UniProt P61073)",,,,,IC50,> 10 µM
CN1COCN(Cc2cnc(Cl)s2)/C1=N\[N+](=O)[O-],,,soil,"56 days, nominal 10",,recovery,72%
Cc1ncc2n1-c1ccc(Cl)cc1C(c1ccccc1F)=NC2,,,"wild-type mice, plasma","intravenous, 0.3 mg/kg, together with: 3-day PCN 10 mg/kg",,mean residence time,0.585 ± 0.182 h
COc1ccc2c3c1O[C@H]1[C@@H](O)C=C[C@@]4(O)[C@@H](C2)N(C)CC[C@]314,,pH-potentiometric titration,,,relative to: O-methyl derivative,"Δlog K, 14-hydroxylation effect",0.78 log units
OCc1ncc2n1-c1ccc(Cl)cc1C(c1ccccc1F)=NC2,,,"human, plasma","oral, 7.5 mg of midazolam, day 1, geometric mean, no amenamevir",,AUC(0-t),44 ng·h/mL
COC(=O)[C@H]1[C@@H](OC(=O)c2ccccc2)C[C@@H]2CC[C@H]1N2,,LC-MS/MS,"Sprague-Dawley rat, whole blood","intraperitoneal, 20 mg/kg of cocaine",,AUC(0-inf),6.76 ± 0.4 µg·min/mL
C[C@@H](O)[C@@H](CO)NC(=O)[C@@H](CCCNC(=N)N)NC(=O)[C@@H]1CCCN1C(=O)[C@@H]1CSSC[C@H](NC(=O)[C@H](Cc2ccccc2)NC(=O)CN2CCN(CC(=O)O)CCN(CC(=O)O)CCN(CC(=O)O)CC2)C(=O)N[C@@H](Cc2ccc(O)cc2)C(=O)N[C@@H](Cc2ccccc2)C(=O)N[C@@H](CCC(N)=O)C(=O)N[C@@H](CC(N)=O)C(=O)N1 [gallium-68 labelled],,,"healthy Wistar rat, small intestine","intravenous, 8 MBq, 30 min, individual animals",,tissue uptake,0.17 %ID/g
CN1CC[C@]23c4c5ccc(O[C@@H]6O[C@H](C(=O)O)[C@@H](O)[C@H](O)[C@H]6O)c4O[C@H]2[C@@H](O)C=C[C@H]3[C@H]1C5,,,"Sprague-Dawley rat, whole blood","intraperitoneal, 10 mg/kg heroin, single heroin dose alone",,AUC(0-inf),312 ± 60.9 µg·min/mL
CCCCCCCCCCC(=O)O[C@H]1CC[C@H]2[C@@H]3CCC4=CC(=O)CC[C@]4(C)[C@H]3CC[C@]12C,,,human male serum,"500 ng/mL, NaF 200 mg/mL, baseline testosterone 544 ng/dL",,testosterone level,551 ng/dL

# Excerpt of the above:
Structure (SMILES),tested on,test,system,setting,scale,quantity,result
C#Cc1ccc2c(c1)C(c1ccccn1)=NCc1c(-c3cnco3)ncn1-2.Cl,,shake flask,50 mM phosphate buffer,"24 h, pH 4, 25 °C",,solubility,3460 µg/mL
CN1CC[C@@H](c2c(O)cc(O)c3c(=O)cc(-c4ccc(C(F)(F)F)cc4Cl)oc23)[C@@H]1CO,,item: Hypotension,relapsed B-cell malignancies or AML,"oral, 100 mg, grade 3-4, continuous dosing",,patients with adverse event,12.5%
CCCC(C(=O)c1ccc2c(c1)OCO2)N1CCCC1.Cl (racemic),,,male Sprague-Dawley rat,"subcutaneous, 4 mg/kg, 40 min",,core body temperature,no effect
CCCC(C(=O)c1ccc(O)c(O)c1)N1CCCC1 (stereo not shown),,LC-MS/MS,"rat, trunk blood plasma","subcutaneous, 2 mg/kg MDPV, 40 min",,plasma concentration,50.6 ± 7 ng/mL
CCOC(=O)Nc1ccc(NCc2ccc(F)cc2)cc1N,,rotarod test,"mouse, CCI neuropathic pain model",10 mg/kg,,time to first slip,0.83 ± 0.08 min
